Experimental data of several laboratories.
Each line is one published result; not all experiments were run side by side. Several values in a cell are separate wells, animals, samples, runs or records. ± gives the spread as reported.
Target: Serine/threonine-protein kinase 24 (STK24, Homo sapiens, UniProt Q9Y6E0)
UniProt Q9Y6E0, sequence (whole entry, looked up): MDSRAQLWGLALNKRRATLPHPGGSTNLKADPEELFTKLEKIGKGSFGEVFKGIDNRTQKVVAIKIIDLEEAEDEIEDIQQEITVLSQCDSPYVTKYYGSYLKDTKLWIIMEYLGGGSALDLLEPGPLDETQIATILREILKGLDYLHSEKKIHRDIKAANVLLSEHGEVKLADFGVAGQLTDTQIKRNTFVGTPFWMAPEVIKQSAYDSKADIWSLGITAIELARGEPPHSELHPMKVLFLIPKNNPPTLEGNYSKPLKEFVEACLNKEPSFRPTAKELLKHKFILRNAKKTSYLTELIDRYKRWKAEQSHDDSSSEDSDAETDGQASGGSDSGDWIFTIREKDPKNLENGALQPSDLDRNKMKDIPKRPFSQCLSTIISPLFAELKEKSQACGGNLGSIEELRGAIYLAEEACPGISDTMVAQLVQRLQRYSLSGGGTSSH

SMILES	assay	test system	setting	how to read	quantity	value
COc1cc(F)ccc1-c1ncnc(Nc2cccc(C[S@](C)(=N)=O)c2)n1	kinase activity	–	10 µM, together with: 10 µM ATP	–	remaining activity	89%
CCN(CC)c1ccc(C2=NNC(=O)CC2C)cc1[N+](=O)[O-] (centres unmarked)	enzyme activity, inhibitor	–	10 µM	–	remaining activity	0%
C=CC(=O)N1CCC(COCC(=O)N2CCN(c3nc(-c4cnc(N)nc4C(F)F)nc(N4CCOC[C@@H]4C)n3)CC2)CC1	KINOMEscan	–	1 µM	relative to: DMSO control	remaining binding	100%
C1=C/COCc2cc(ccc2OCCN2CCCC2)Nc2nccc(n2)-c2cccc(c2)COC/1	–	–	concentration not given, gene name MST3	–	percent of control	99%
C[C@@H](c1ccc(-n2cnc3c(N)ncnc32)cc1)N1CCc2nn(C)c(Cc3ccccc3)c2C1=O	KINOMEscan	–	0.1 µM	relative to: DMSO control	remaining binding	100%
C=CC(=O)N1CCC(C(=O)NCC(=O)N2CCN(c3nc(-c4cnc(N)nc4C(F)F)nc(N4CCOCC4)n3)CC2)CC1	KINOMEscan	–	1 µM	–	remaining binding	98%
O=C(NC1CCC1)c1ccc2nc(-c3cccc(NS(=O)(=O)NCCN4CCCCC4)c3)cn2c1	enzyme activity	–	10 µM	–	remaining activity	93%
O=C(COP(=O)(O)O)[C@@H](O)[C@H](O)[C@H](O)COP(=O)(O)O	thermal proteome profiling	HepG2 cell lysate	concentration not given, 57 over 37 °C	relative to: compound over control	thermal stability ratio	0.667 and 0.643 and 0.545
C=CC(=O)N1CCC([C@@H]2CCNc3c(C(N)=O)c(-c4ccc(Oc5ccccc5)cc4)nn32)CC1	kinase activity, inhibitor, HotSpot radiometric	–	100 nM, together with: ATP 10 µM	–	remaining activity	66.1 ± 0.5%
CC[C@@H]1[C@H](F)C(=O)N[C@@H]1COc1nccc2cc(C(N)=O)c(OC)cc12	ATP-site probe binding, ActivX profiling, refers to: MST3	THP-1 cell lysate	0.04 mM, Lys1 site	–	inhibition	-19.7%
COc1ccc(F)cc1C(=O)NCc1ccc(-c2nn([C@@H](C)C(F)(F)F)c(N)c2C(N)=O)cc1	kinase activity, inhibitor, HotSpot radiometric	–	1000 nM, together with: ATP at Km	–	remaining activity	98.8 ± 2.9%
CNc1ncc2c(/C=C/C(=O)N3CCC(OC)CC3)nn(Cc3cccc(C(F)(F)F)c3)c2n1	kinase activity, inhibitor	–	1 µM	relative to: untreated control	remaining activity	106%
CCCOc1ccc(OC)c(F)c1C(=O)c1ccc(C(=O)N[C@@H]2CNC[C@H]2NC(=O)c2ccc3[nH]ncc3c2)cc1	enzyme activity	–	10 µM	–	remaining activity	66%
CC#CC(=O)N1CCC[C@H]1c1nc(-c2ccc(C(=O)Nc3ccccn3)cc2)c2c(N)nccn12	kinase activity, inhibitor, HotSpot radiometric	–	100 nM, together with: ATP 10 µM	–	remaining activity	91 ± 6.3%
